# Published values of several laboratories.
# Every numbered part comes from another study and shows a few of its results, in no order.

# Sample 1
# Target: Histone acetyltransferase KAT6A, both winged helices, GST fusion (KAT6A, Homo sapiens, UniProt Q92794, residues 1-181)
# Method: protein binding microarray
# Molecule type: double-stranded DNA, one strand shown
# Sample: in vitro
# Concentration: not given
# Setting: 8-mer, flanks averaged, mean of 2 arrays, mostly near background
# Baseline: not given
# Reading: higher = stronger binding
# Residues (chain): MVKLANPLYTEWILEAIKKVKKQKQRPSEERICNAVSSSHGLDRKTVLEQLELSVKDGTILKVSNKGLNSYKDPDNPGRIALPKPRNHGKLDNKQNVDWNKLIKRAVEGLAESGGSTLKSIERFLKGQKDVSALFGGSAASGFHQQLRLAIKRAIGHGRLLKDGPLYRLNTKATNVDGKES
Oligonucleotide,E-score
AGAGCGCT,0.273
ATCCTAAA,-0.126
GGGCAACC,-0.0859
AAGAACTA,-0.153
GATAAACA,-0.00994
GTTCGATA,0.041
AGATGAAG,-0.219
CCCTCCCC,0.0951
ATCTCGTC,-0.0466
CTCTGGAA,-0.0622
AGGTGGTG,-0.188
GAGTCGCC,0.106
CACTCGGC,0.211
AATGCCAC,-0.226
GAGTAAGA,-0.119
ACCATAGT,-0.126
GACAACGC,0.112
CTCAGTGC,-0.064
ACAAATAC,0.00314
AGTGCGTG,0.121
AATGGCAC,0.0155
ACCCCACA,-0.216
GTGCTTAA,-0.0858

# Sample 2
# Target: Hepatocyte nuclear factor 3-alpha (Foxa1, Mus musculus, UniProt P35582, residues 1-468, full length assumed)
# Method: EMSA with sequencing
# Molecule type: double-stranded DNA, one strand shown
# Sample: in vitro
# Concentration: 10 and 20 nM
# Setting: whole designed probe, mean of two concentrations, ends assumed
# Baseline: negative control set to 0
# Reading: higher = stronger binding
# Construct (chain): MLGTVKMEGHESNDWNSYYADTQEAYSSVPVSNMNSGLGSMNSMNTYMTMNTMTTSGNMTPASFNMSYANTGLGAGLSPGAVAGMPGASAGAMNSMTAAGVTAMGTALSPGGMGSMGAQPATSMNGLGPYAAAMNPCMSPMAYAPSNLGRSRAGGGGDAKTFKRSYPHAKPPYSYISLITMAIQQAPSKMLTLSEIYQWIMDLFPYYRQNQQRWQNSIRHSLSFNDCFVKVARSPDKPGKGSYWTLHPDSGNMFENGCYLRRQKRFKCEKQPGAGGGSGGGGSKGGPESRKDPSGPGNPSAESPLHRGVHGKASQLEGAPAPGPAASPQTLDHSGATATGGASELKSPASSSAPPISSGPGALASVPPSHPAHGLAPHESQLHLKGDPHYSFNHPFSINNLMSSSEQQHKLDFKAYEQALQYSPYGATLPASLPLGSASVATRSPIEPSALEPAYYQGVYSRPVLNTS
Oligonucleotide,normalised bound fraction
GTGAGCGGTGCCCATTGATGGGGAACGCTCAGCTTCCTCATCTAAGGAGGCAATAAAACCTTCCACTATGTGGTCAGGATTACAAGATTTAAAGTATATGAAATCTGTAAGGCCCTTATGCAAATAAAGATGTTATTATCCTACTTTGCAGATGAATGAAAAATATTACTGAATCAGAGAAACTAAGGTTCAGAGACATAAAGTCACTTGCTGACGTTTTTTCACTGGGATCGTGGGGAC,0.432 ratio
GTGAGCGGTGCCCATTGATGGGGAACTCAACTGACTCACCCAGAGCAACTTCTAGTCCTGCAAGCTATGTTCATGGAGTGTCCTATGCAGGTGCATCCTTTTTTATCTTTTATACTGCAAGATTACTCTGTGTATTTTCTGTGTTTAGACTCATAAATACTTAACATTTTGTTACAATTTCCTACAGTGTTCAGTACAACAACATGTTGTATGGTTTATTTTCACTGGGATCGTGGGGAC,0.0238 ratio
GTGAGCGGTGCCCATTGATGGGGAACATCTTCCCCCTCTTCCTTGCCCCACCAGCTCACCTTCCCGGGTTATTTGCAGATAGGAAAATAAATAAAGCCGGCATTCGTTAACCCTCTTCTGGCGCAAACTGCGTTGTTCCTTGGATGAATCATGGTCCTTTGGCGACGCCAGGCTCCGGGAGAGCAAAGCACCGTGTCAGGGCCATGATCCGGGGTGGCCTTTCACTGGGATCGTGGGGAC,0.329 ratio
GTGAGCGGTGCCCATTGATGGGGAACAAACTTCCTGTCCCATCACCCAGCATCAACACCATTAACCAGTCATGACTAATCCTGCCCCATCCACGTCCCCAGCCTTTCCCCGACTTCTCATATTTGCTTTGAAACAAATCCCAGATATAATATCATTTCATTGTGAGGTTGTTGTGAGGATTAACTAAAAGCATGCCTATCATATGGGTCTCTAAAAGATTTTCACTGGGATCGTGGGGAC,0.256 ratio
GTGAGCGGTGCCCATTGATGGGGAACAGAACACCATGTGTAGGGAACCTGAATTTTTTGTAATAGGCCGTAAGCATGCCTGCCCTTTGGCCTGGAAAGAGACACTATATCTTCCAGGGCAGATTGCTGTGTAATCTTCCTTGAAAAGACAGCCTTGAACAAAGGGCAGTCAATAGTTCTACTCAAAAGACATGGAGAAATGCAAAAGACCCATGGAGATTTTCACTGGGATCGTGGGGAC,-0.0113 ratio
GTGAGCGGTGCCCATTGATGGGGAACATCTTCCCCCTCTTCCTTGCCCCACCAGCTCACCTTCCCGGGTTATTTGCAGATAGGAAAATAAATAAAGCCGGCATTCGTTAACCCTCTTCTGGCGCAAACTGCTGTTTGCTCTGGATGAATCATGGTCCTTTGGCGACGCCAGGCTCCGGGAGAGCAAAGCACCGTGTCAGGGCCATGATCCGGGCTCGCCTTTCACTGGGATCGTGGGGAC,0.338 ratio

# Sample 3
# Target: RNA binding protein fox-1 homolog 2, RRM domain, GST-SBP tag (RBFOX2, Homo sapiens, UniProt O43251-10, residues 100-194)
# Method: RNA Bind-n-Seq
# Molecule type: RNA
# Sample: in vitro
# Concentration: 365 nM
# Setting: natural RNA segment, single round, ends assumed
# Baseline: no-protein control
# Reading: higher = stronger binding
# Construct (chain): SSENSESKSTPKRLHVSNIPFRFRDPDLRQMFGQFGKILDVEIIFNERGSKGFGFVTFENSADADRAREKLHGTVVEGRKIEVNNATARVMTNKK
Oligonucleotide,RBNS enrichment (R)
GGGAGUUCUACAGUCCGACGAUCUGCUUUUUGGGACCAUCACUGAGAGUCAGGAGUUUUACUGCCUGUAGCAAUGGCCAGAGCCUCUGGCCCCUCACCCACCAUGGACCAGCCCAUUGGCCGAGCUCCUGGGGUGGAAUUCUCGGGUGCCAA,0.281
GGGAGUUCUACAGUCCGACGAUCUGAGUUUCCUUCCCCCUCCCCCCAAUUCAAACCAGGCAGUUUUUUUGGAAGCCAGGUUUCCUUACACUAAGGUAGGUCUAGGUUCUUCGGAAACUAAGAUAAACUUAGUGUGGAAUUCUCGGGUGCCAA,0.424
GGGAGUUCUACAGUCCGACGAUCGCACUUUUAAAAUAAGAAGCAUGAACAACAUUUAAAUUCCCAUUUAUCAAAUCCUUCUCUCCCAAGCCAUUUAAAAACGUUUUUUAAGUGAAAAGUUUGUAUUCUGCCUCUGGAAUUCUCGGGUGCCAA,2.77
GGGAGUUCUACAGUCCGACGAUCAAUUGUGGACUUUUAAAACCUGUUGACUAAACAGUAAUUAAUUUAUAUUUGUGAAAAAUGCCACUGUCCUAGUGAUUUCUGAUGUAAAUAAUGUUGUUUAUAUAGUAUGUUGGAAUUCUCGGGUGCCAA,0.43
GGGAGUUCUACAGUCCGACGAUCUUGGCAAUAAUGUCAACACCAGAAAGCCUCCUCUGGAGAAUCUUACAGAGUGAUUGUAGUUUAAUACAGGAACACACAGGGCUGUGUAGCAUGAUACCAGGCCCAGGAGAUGGAAUUCUCGGGUGCCAA,3.27
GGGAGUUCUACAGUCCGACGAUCUGUGGCCUGUUUGUGCUGUCCUGCAUCCAGUGUGUUGGCCUGGCUAAGUGAAAACGGUGAGCUGUUUCCCCUUUGGGCUACUUAACCACGGCUACUCCUUUUUUAAAAAUUGGAAUUCUCGGGUGCCAA,0.308
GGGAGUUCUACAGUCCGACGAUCCCUUUGUGAGGAGCCGGGCGCAGCCUGCUCGCCUGUGGUGAAACCCAUGGGGUGUCACACCCCACACCUCAUGCUCGAGAGGCCCGACCCAGGGGCAGAAAACGGGGCUUUGGAAUUCUCGGGUGCCAA,0.474
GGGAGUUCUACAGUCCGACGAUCAAGUCACCAGGUAGCUUCCAUGAGGAAUAGCUCCUCACGGUUCAUUUUUUCAGUUAGAAGAAGGUUUUUAUGAGUUAAUUUUACCCAUAAAUAUUUCAGUAAUUUUGGAGUGGAAUUCUCGGGUGCCAA,0.485
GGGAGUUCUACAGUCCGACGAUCAUUUCAGAAGAAAUCGAGGGCACAGGCCCUCACUUUUCUUCUUUUGACGCAUCAUCCUGUGAUGUUGAAAUGUCAAUUGCAGGAUGCUGAUGUUGUGCACGUCAAUCACCUGGAAUUCUCGGGUGCCAA,0.504

# Sample 4
# Target: RING finger protein unkempt homolog, zinc fingers 1-6, GST-SBP tag (UNK, Homo sapiens, UniProt Q9C0B0, residues 30-357)
# Method: RNA Bind-n-Seq
# Molecule type: RNA
# Sample: in vitro
# Concentration: not given
# Setting: RNA with constant flanks, human-mouse chimeric sites, ends assumed
# Baseline: input RNA pool
# Reading: higher = stronger binding
# Target sequence (chain): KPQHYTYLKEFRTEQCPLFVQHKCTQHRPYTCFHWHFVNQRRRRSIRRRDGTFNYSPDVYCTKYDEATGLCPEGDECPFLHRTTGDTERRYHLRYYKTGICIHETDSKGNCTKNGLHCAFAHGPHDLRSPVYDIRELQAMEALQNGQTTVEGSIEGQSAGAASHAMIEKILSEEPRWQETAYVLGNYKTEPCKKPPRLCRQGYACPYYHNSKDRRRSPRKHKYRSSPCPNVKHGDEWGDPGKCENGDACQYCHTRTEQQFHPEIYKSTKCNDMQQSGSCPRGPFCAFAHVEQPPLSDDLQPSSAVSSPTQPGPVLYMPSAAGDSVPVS
Oligonucleotide,bound/input enrichment
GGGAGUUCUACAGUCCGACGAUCGUAGCUGGGACUACAGAAAUGCUGGUAAUUUCAGUCACUUGCUGAUGACUUCUGAUGUCCCAGCAAAUGUUGGCAUUGUUGACUGCUGAGAAGAUACACUCGCAAGGCCACGUCUAAGGUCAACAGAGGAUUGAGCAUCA,0.091 ratio
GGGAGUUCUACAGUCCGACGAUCAUCAAAUACUUUGGGGACAUCAUUAGUGUGGGACAGAGAUUGUUGCAAGGAGCUCGGAUCUUAGGGAUUCCAGUUAUCAUAACGGAACAAUACCCCAAAGGUCUUGGCAGCACCGUUCAACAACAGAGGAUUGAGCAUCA,0.143 ratio
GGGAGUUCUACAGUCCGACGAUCGGACAUCUGUCAAAUUGUUAUGUUCCUGUGAAACAAGUGAACACUCUUCAUAUACUAAUCUGCUUGUACAUCUGUAUGAUAGAGAAAUGUAAAUAUGAAUAUAUUUACAAUGUGUCACUUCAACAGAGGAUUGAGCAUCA,0.137 ratio
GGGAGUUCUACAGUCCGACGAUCAUCAAAUACUUUGGGGACAUCAUUAGUGUGGGACAGAGACUGUUGCAAGGAGCUCGGAUUUUAGGAAUUCCAGUUAUCAUAACGGAACAAUACCCCAAAGGUCUUGGCAGCACCGUUCAACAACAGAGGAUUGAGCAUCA,0.299 ratio
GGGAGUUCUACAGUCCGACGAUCUUACCCGAGAACGAGGAUGAAUUGGAGAGCACCAACAGGCGCUACACCAAGAGGGACUGCAGCACUUUCCUCAGAACUAGUGAGACGGGCAUCGUGGACCAGGUCAUGGUAACUCUCAACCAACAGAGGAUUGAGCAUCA,0.215 ratio
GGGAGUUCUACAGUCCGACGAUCAAAGAACUACUGAGGCAAGGCAGCAAAUUUAGGAGAGAUGUAUCAACAAUAUUGAUAGAGUUAGGAUUCCAAAUUAAAAAGAAAACUAAGACAUUAUACAUCAACAAAGCCAAUAUCUGGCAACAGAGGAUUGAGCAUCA,5.09 ratio
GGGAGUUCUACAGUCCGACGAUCUUAAUCCCCUUUACUGCUCCCCCACUUCUCAUGGUAAUAACAAAGUCUUAUAUCCCCAUAUUAGCUUUCACUCAGAUGGCUUAUGGAGCCGGUUUCCUAGCUUUCUUGGGAGGGAUCAGACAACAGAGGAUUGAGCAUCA,0.275 ratio
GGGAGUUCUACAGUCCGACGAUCGACUUUGGGACUGGUCCUCGCAACGCAGCCUACUAUAGCCCUCAUGGACAUAUAUUAGUGCUGGCUGGAUUUGGAAAUCUUCGAGGACAAAUGGAAGUGUGGGAUGUUAAAAACUACAAGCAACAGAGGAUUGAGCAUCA,0.336 ratio
